Assay results from different studies.
Numbers after ± are the reported error.
CBL TKB domain: E3 ubiquitin-protein ligase CBL, TKB domain (CBL, Homo sapiens, UniProt P22681)
CBL SH2 domain: E3 ubiquitin-protein ligase CBL, SH2 domain (CBL, Homo sapiens, UniProt P22681)
INPPL1 phosphatase-C2 domains: Phosphatidylinositol 3,4,5-trisphosphate 5-phosphatase 2, phosphatase-C2 domains (INPPL1, Homo sapiens, UniProt O15357)
Chain of UniProt O15357 (whole entry, looked up): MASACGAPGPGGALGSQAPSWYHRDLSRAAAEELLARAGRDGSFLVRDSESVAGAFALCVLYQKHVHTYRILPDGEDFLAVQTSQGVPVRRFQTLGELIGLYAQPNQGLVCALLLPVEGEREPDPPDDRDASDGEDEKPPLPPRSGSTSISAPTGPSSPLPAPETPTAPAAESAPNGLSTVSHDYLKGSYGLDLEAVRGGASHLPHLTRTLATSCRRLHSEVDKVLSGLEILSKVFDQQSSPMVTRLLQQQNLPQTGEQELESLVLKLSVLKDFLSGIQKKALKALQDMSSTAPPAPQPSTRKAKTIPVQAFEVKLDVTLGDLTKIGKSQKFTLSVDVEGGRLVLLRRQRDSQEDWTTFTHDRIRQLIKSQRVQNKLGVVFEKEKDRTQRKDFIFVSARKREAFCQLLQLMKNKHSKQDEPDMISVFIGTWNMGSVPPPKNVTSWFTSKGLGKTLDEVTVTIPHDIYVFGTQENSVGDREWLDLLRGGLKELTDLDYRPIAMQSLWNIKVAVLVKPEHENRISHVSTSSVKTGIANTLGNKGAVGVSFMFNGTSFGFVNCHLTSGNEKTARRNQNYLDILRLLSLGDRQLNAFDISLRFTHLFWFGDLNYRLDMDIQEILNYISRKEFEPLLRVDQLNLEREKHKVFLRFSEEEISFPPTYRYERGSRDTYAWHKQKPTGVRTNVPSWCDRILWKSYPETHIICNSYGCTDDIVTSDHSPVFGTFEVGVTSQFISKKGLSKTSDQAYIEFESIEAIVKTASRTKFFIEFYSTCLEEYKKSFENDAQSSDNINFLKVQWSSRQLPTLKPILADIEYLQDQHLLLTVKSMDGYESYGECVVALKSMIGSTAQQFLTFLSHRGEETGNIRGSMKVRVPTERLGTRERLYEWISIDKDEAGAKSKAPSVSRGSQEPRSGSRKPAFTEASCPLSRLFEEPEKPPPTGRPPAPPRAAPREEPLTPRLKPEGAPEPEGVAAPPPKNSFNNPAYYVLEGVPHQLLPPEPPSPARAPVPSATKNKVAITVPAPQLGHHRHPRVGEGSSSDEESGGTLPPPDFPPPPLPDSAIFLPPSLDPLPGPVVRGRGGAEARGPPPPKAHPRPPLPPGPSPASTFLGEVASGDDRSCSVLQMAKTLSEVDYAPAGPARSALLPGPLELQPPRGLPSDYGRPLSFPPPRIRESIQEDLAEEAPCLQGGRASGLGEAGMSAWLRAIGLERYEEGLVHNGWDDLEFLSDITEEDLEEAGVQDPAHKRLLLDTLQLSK
Chain of UniProt P28887 (whole entry, looked up): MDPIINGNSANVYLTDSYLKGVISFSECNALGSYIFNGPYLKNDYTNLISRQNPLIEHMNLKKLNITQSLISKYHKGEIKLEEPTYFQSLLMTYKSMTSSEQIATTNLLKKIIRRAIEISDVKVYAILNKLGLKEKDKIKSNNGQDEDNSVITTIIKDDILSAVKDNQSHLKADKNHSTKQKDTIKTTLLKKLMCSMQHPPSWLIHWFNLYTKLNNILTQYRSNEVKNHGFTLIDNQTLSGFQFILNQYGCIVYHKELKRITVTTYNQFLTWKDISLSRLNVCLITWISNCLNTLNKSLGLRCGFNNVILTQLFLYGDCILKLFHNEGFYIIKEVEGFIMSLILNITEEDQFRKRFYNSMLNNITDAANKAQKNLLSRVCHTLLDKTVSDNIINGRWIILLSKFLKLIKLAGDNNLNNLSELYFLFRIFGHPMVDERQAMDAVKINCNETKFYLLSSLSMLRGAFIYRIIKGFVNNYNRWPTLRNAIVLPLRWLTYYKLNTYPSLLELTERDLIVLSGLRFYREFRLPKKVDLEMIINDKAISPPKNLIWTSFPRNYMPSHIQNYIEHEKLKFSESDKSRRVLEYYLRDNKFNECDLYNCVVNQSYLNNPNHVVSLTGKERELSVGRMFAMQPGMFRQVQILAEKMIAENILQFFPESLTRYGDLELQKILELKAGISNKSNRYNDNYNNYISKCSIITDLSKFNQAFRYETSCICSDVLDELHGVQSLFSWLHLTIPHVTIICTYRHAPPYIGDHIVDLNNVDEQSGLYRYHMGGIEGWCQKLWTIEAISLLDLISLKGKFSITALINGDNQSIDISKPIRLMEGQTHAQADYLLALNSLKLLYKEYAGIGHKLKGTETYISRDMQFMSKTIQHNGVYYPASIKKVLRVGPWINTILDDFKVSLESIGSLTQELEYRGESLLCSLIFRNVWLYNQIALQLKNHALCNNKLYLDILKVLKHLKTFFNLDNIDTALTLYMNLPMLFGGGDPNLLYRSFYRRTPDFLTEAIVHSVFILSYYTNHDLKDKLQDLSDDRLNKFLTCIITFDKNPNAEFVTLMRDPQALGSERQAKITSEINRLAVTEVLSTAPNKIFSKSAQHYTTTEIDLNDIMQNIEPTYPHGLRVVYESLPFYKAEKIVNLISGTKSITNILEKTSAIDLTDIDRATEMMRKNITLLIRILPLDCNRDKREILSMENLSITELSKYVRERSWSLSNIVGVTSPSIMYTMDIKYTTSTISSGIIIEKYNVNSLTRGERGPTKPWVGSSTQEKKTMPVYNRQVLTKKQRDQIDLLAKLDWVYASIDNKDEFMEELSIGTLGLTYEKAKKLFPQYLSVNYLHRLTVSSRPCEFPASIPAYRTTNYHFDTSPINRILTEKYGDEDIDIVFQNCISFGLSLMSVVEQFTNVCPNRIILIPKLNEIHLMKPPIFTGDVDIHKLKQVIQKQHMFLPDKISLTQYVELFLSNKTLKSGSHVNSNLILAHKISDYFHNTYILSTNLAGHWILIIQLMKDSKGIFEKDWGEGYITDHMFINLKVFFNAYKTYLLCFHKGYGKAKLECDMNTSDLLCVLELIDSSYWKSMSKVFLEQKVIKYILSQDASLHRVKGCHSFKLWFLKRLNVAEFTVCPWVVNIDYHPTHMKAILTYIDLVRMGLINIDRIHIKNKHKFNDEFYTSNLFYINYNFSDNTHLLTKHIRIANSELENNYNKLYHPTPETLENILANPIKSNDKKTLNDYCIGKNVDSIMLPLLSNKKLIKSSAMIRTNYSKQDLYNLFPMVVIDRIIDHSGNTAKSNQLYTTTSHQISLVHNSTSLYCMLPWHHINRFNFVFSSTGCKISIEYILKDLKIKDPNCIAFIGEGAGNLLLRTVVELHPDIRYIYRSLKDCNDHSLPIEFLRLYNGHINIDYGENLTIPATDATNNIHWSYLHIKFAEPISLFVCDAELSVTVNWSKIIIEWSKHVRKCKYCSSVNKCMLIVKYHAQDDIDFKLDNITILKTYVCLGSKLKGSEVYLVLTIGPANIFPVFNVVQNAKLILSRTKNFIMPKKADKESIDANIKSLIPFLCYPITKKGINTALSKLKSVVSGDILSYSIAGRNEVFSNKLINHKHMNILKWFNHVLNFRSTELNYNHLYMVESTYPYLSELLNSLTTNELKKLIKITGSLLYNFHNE

For `CC(=O)N[C@@H](Cc1ccc(OP(=O)(O)O)cc1)C(=O)N[C@H](C(=O)N1CCC[C@H]1C(=O)N1CCC[C@H]1C(=O)N1CCC[C@H]1C(N)=O)[C@@H](C)O`, the Ki was 5 ± 2.2 µM (CBL TKB domain).
`CSCC[C@H](NC(=O)[C@H](CC(C)C)NC(=O)CNC(=O)[C@H](Cc1ccccc1)NC(=O)[C@H](Cc1ccccc1)NC(=O)[C@H](CCC(N)=O)NC(=O)[C@H](CCC(N)=O)NC(=O)[C@@H]1CCCN1C(=O)[C@H](CCCCN)NC(=O)[C@@H]1CCCN1C(=O)[C@@H](N)CCCN=C(N)N)C(N)=O`: “time to full degradation” 5 min (ELISA; mouse, diabetic, serum; intravenous, dose not given).
`CC(=O)NCCCC[C@H](NC(=O)CNC(=O)[C@H](CCCNC(=N)N)NC(=O)CNC(=O)[C@@H](N)CO)C(=O)NCC(=O)NCC(=O)N[C@@H](CCCCN)C(=O)NCC(=O)N[C@@H](CC(C)C)C(=O)O` — result for Kd: “no binding” (Peregrin (BRPF1, Homo sapiens, UniProt P55201, Y665F)).
`CSCC[C@H](NC(=O)[C@H](CC(=O)O)NC(=O)[C@H](CCCNC(=N)N)NC(=O)[C@H](C)NC(=O)[C@H](CC(C)C)NC(=O)c1ccc2c(c1)C(=O)OC21c2ccc(N(C)C)cc2Oc2cc(N(C)C)ccc21)C(=O)N[C@@H](Cc1ccc(O)cc1)C(=O)N[C@@H](CC(=O)O)C(=O)N[C@@H](CCCCN)C(=O)N[C@@H](CCC(=O)O)C(=O)N[C@@H](Cc1ccc(OP(=O)(O)O)cc1)C(=O)N[C@@H](Cc1ccc(O)cc1)C(=O)N[C@@H](CO)C(=O)N[C@H](C(=O)N[C@@H](Cc1c[nH]cn1)C(=O)N[C@@H](CC(N)=O)C(=O)N[C@@H](CCCCN)C(=O)N[C@H](C(=O)N[C@@H](CC(=O)O)C(=O)O)[C@@H](C)O)C(C)C` has a Kd of 0.931 µM (CBL SH2 domain; human protein).
The EC50 of `COCCCNC(=O)c1ccc(Cn2c(=O)c3ccccc3n(Cc3ccc(C(C)C)cc3)c2=O)cc1` is reported as 1.2 µM (RNA-directed RNA polymerase L (Human respiratory syncytial virus A, UniProt P28887)).
`Cc1cc(N2CCNCC2)nc(C#N)n1` gave an IC50 of 1700 µM (INPPL1 phosphatase-C2 domains; enzyme activity, inhibitor).
`CSCC[C@H](NC(=O)[C@H](CCC(=O)O)NC(=O)c1ccc2c(c1)C(=O)OC21c2ccc(N(C)C)cc2Oc2cc(N(C)C)ccc21)C(=O)N[C@H](C(=O)N[C@@H](CO)C(=O)N[C@@H](CC(N)=O)C(=O)N[C@@H](CCC(=O)O)C(=O)N[C@@H](CO)C(=O)N[C@H](C(=O)N[C@@H](CC(=O)O)C(=O)N[C@@H](Cc1ccc(OP(=O)(O)O)cc1)C(=O)N[C@@H](CCCNC(=N)N)C(=O)N[C@@H](C)C(=O)N[C@H](C(=O)N[C@@H](Cc1ccccc1)C(=O)N1CCC[C@H]1C(=O)N[C@@H](CCC(=O)O)C(=O)N[C@@H](CC(=O)O)C(=O)N[C@@H](CC(=O)O)C(=O)O)[C@@H](C)O)C(C)C)C(C)C` gave a Kd of 0.131 µM (CBL SH2 domain; human protein).
`O=C(NCc1c(F)cccc1F)c1sccc1OCc1ccc(Cl)cc1Cl` has an IC50 of over 900 µM (INPPL1 phosphatase-C2 domains; enzyme activity, inhibitor).
The inhibition of `CC(C)C[C@H](NC(=O)[C@H](CCCCN)NC(=O)[C@H](CCCCN)NC(=O)Cc1cccc(CNC(=O)[C@@H](C)NC(=N)N)c1)B(O)O` is reported as 56 ± 14% (Prothrombin (F2, Bos taurus, UniProt P00735); 100 µM).
For `Cc1sc2c(c1C)C(c1ccc(Cl)cc1)=N[C@@H](CC(=O)OC(C)(C)C)c1nnc(C)n1-2`, the fold induction was 30 fold (NMC-797; qRT-PCR, measured: keratin-14 mRNA; 250 nM, 48 h; reference: untreated).
The IC50 of `C[C@H](NC(=O)c1sccc1OCc1ccc(Cl)cc1)c1ccccc1` is reported as over 900 µM (INPPL1 phosphatase-C2 domains; enzyme activity, inhibitor).
For `CC(=O)N[C@@H](Cc1ccc(OP(=O)(O)O)cc1)C(=O)N[C@H](C(=O)N1CCC[C@H]1C(=O)N[C@@H](C)C(=O)N1CCC[C@H]1C(N)=O)[C@@H](C)O`, the Ki was 18.1 ± 5.7 µM (CBL TKB domain).

Some of these lines once more:
`CSCC[C@H](NC(=O)[C@H](CC(C)C)NC(=O)CNC(=O)[C@H](Cc1ccccc1)NC(=O)[C@H](Cc1ccccc1)NC(=O)[C@H](CCC(N)=O)NC(=O)[C@H](CCC(N)=O)NC(=O)[C@@H]1CCCN1C(=O)[C@H](CCCCN)NC(=O)[C@@H]1CCCN1C(=O)[C@@H](N)CCCN=C(N)N)C(N)=O`: “time to full degradation” 5 min (ELISA; mouse, diabetic, serum; intravenous, dose not given).
`CC(=O)NCCCC[C@H](NC(=O)CNC(=O)[C@H](CCCNC(=N)N)NC(=O)CNC(=O)[C@@H](N)CO)C(=O)NCC(=O)NCC(=O)N[C@@H](CCCCN)C(=O)NCC(=O)N[C@@H](CC(C)C)C(=O)O` — result for Kd: “no binding” (Peregrin (BRPF1, Homo sapiens, UniProt P55201, Y665F)).
